Published values collected from several papers.
Compare with care: the assays were run in different laboratories.
Method: shake flask

Compound	sample	time	pH	logD
CC[C@@H](C)N([11CH3])C(=O)c1nc(-c2ccc(Cl)cc2)c2ccccc2n1	aqueous buffer		pH 7.4	~3.5
Cc1ccc2c(=O)n(-c3ccc([18F])cc3)c(CCN3C(=O)c4cccc(OC(C)C)c4C3=O)nc2c1	PBS		pH 7.4	3.5
Cc1ccccc1-c1cc(N2CCN(C)CC2)ccc1N(C)C(=O)C(C)(C)c1cc(C(F)(F)F)cc(C(F)(F)F)c1	aqueous buffer		pH 7	5.06
Cc1nc(-c2ccc(NC(=O)c3cccs3)cc2Cl)no1	PBS	4 h	pH 7.4	3.3
CN1C(=O)C2(Nc3ccccc3C(=O)N2Cc2ccccc2)c2cc(Br)ccc21 (stereo not drawn)	aqueous buffer		pH 7.4	3.7
C[n+]1cc(C(=O)NCc2cccc(CNC(=O)c3cc4ccccc4[n+](C)c3)c2)cc2ccccc21	aqueous buffer		pH 7.4	-0.6
CCNC(=O)C1OC(n2cnc3c(NCC(C)C)nc(NCCNC(=O)Nc4ccncc4)nc32)C(O)C1O (stereo not drawn)	aqueous buffer		pH 7.4	1.8
Cc1ccc(N2Cc3cc(NC(=O)N4CCN(c5ccc(F)cc5)CC4)ccc3C2=O)cc1	aqueous buffer		pH 7.4	< 5
Cc1ccccc1-c1cc(N2CCN(C(=O)CCC(=O)O)CC2)ccc1N(C)C(=O)C(C)(C)c1cc(C(F)(F)F)cc(C(F)(F)F)c1	aqueous buffer		pH 7	3.49
CCn1cc(C(=O)NCCNCCO)c(=O)c2cc(OCc3ccc(C(F)(F)F)cc3)c(C(F)(F)F)cc21	PBS	2 h	pH 7.4	< 3
CC(C)[C@H](CO)Nc1nc(Nc2ccc(C(=O)NCCNS(=O)(=O)c3cccc4c(N(C)C)cccc34)c(Cl)c2)c2ncn(C(C)C)c2n1	PBS		pH 7.4	2.03
Cc1ccccc1-c1cc(N2CCN(Cc3ccccc3)CC2)ccc1N(C)C(=O)C(C)(C)c1cc(C(F)(F)F)cc(C(F)(F)F)c1	aqueous buffer		pH 7	> 5
C[n+]1cc2cc3cc(ccc31)NC(=O)CCCCC(=O)Nc1ccc3c(c1)cc(c[n+]3C)C(=O)Nc1ccc3[nH]cc(c3c1)CCNC2=O	aqueous buffer		pH 7.4	-0.9
CCNC(=O)C1OC(n2cnc3c(N)nc(NCCNC(=O)Nc4cc[n+](C)cc4)nc32)C(O)C1O (stereo not drawn)	aqueous buffer		pH 7.4	< -1
COc1cc(-c2cncc(-c3ccc(N4CCN(C)CC4)cc3)c2C)cc(OC)c1OC	aqueous buffer		pH 7.4	3.37
Cc1ccc(S(=O)(=O)OCCOC(=O)c2cc(C#N)c(N3CCC(C(=O)NS(=O)(=O)c4ccc(Cl)s4)CC3)nc2C(F)(F)F)cc1	PBS		pH 7.4	1.54
O=[11C](OC(C(F)(F)F)C(F)(F)F)N1CCC(CNS(=O)(=O)c2ccc(Cl)cc2)CC1	PBS		pH 7.4	3.69
CCNC(=O)C1OC(n2cnc3c(NCC(C)C)nc(NCCNC(=O)Nc4cc[n+](C)cc4)nc32)C(O)C1O (stereo not drawn)	aqueous buffer		pH 7.4	< -1.1
CCn1cc(C(=O)NCCNCCO)c(=O)c2cc(OCc3ccc(F)cc3)c(Cl)cc21	PBS	2 h	pH 7.4	< 3
O=C1CCCCC(=O)Nc2ccc3ncc(cc3c2)C(=O)NCc2cccc(c2)CNC(=O)c2cnc3ccc(cc3c2)N1	aqueous buffer		pH 7.4	2.3
OCC1OC(n2cnc3c(NCC(c4ccccc4)c4ccccc4)ncnc32)C(O)C1O (stereo not drawn)	aqueous buffer		pH 7.4	2.6
N#Cc1cc(C(=O)OCCF)c(C(F)(F)F)nc1N1CCN(C(=O)Cc2ccccc2)CC1	PBS		pH 7.4	2.08
CCNC(=O)C1OC(n2cnc3c(NCC(c4ccccc4)c4ccccc4)nc(C(=O)NCCNC(=O)NC4CCN(c5ccccn5)CC4)nc32)C(O)C1O (stereo not drawn)	aqueous buffer		pH 7.4	3.6
CC(C)(C)c1nc(-c2ccc(NC(=O)c3cccs3)cc2Cl)no1	PBS	4 h	pH 7.4	> 5
COc1cc(/C=C/C(=O)/C=C(O)/C=C/c2ccc(OCC(=O)N3CCOCCOCCOCCOCCOCC3)c(OC)c2)ccc1OCC(=O)N1CCOCCOCCOCCOCCOCC1	aqueous buffer	12 h	pH 7.4	2.7
C[n+]1cc2cc3cc(ccc31)NC(=O)CCCCC(=O)Nc1ccc3c(c1)cc(c[n+]3C)C(=O)NCc1cccc(c1)CNC2=O	aqueous buffer		pH 7.4	< -1
O=C(NCCNCCO)c1cn(Cc2ccccc2)c2c(Cl)c(OCc3ccc(C(F)(F)F)cc3)c(Cl)cc2c1=O	PBS	2 h	pH 7.4	> 3
CCNC(=O)C1OC(n2cnc3c(NC(CC)CC)nc(NCCNC(=O)Nc4cc[n+](C)cc4)nc32)C(O)C1O (stereo not drawn)	aqueous buffer		pH 7.4	-0.7
Cc1ccc(N2Cc3cc(NC(=O)N4CCN(c5cccc(C(F)(F)F)c5)CC4)ccc3C2=O)cc1	aqueous buffer		pH 7.4	< 5
COc1cc(-c2cncc(-c3ccc(N4CCNCC4)cc3)c2C)cc(OC)c1F	aqueous buffer		pH 7.4	2.45
